Experimental data from different studies.
Protocols differ between the studies behind these lines. ± gives the spread as reported.

| Structure (SMILES) | target or system | assay | test system | setting | scale | quantity | value |
| --- | --- | --- | --- | --- | --- | --- | --- |
| Cc1cc(=O)c2c(O)c3c(O[C@@H]4O[C@H](CO)[C@@H](O)[C@H](O)[C@H]4O)cc(O)cc3cc2o1 | HepaRG co-cultured with HK-2 | MTT |  | 66.67 µM, 24 h | reference: untreated control | cell viability | 86.6 ± 16.8% |
| CCn1nc(Cl)c2c1-c1cnc(N)c(c1)O[C@H](C)c1cc(F)ccc1-c1nn(C)cc1C2 | ALK (Homo sapiens, UniProt Q9UM73, C1156Y) | enzyme activity, inhibitor |  | together with: 1 mM ATP |  | IC50 | 1 nM |
| CCCC[C@H](NC(=O)CCCCCCCNC(=O)CN1CCN(CC(=O)O)CCN(CC(=O)O)CC1)C(=O)N[C@H]1CC(=O)NCCCC[C@@H](C(N)=O)NC(=O)[C@H](Cc2c[nH]c3ccccc23)NC(=O)[C@H](CCCNC(=N)N)NC(=O)[C@@H](Cc2ccccc2)NC(=O)[C@H](Cc2c[nH]cn2)NC1=O [technetium-99m labelled] |  |  | C57 mouse, lung | intravenous, 0.037 MBq, 4 h |  | tissue uptake | 0.1 ± 0.06 %ID/g |
| F[C@@H]1[C@H](c2ccc(-c3cncnc3)cc2)[C@H](F)[C@H](F)C[C@@H]1F |  | liver microsome stability | cynomolgus liver microsomes | 1 µM |  | hepatic clearance | 6.8 mL/min/kg |
| N#C[C@@H]1CC(F)(F)CN1C(=O)CNC(=O)c1ccnc2c(NC(=O)CCOCCOCCOCCOCCOCCOCCNC(=O)[C@H](CCCCNC(=O)CN3CCN(CC(=O)[O-])CCN(CC(=O)[O-])CCN(CC(=O)[O-])CC3)NC(=O)CCCc3ccc(I)cc3)cccc12.[177Lu+3] | U-87 MG tumour model |  | host not given, muscle | 4 h, tumour-bearing |  | tracer uptake | 0.85 %ID/g |
| C=CC(=O)Nc1cccc(Cn2ncc3cnc(Nc4cnn(CCOC)c4)nc32)c1 | PAK2 human | binding, KINOMEscan |  | 100 nM | lower = stronger binding | percent of control | 83% |
| O=C(CC1CCOCC1)Nc1ccc([C@H]2[C@@H](F)[C@@H](F)C[C@@H](F)[C@H]2F)cc1 |  | hepatocyte stability | cryopreserved mouse hepatocytes | 1 µM |  | hepatic clearance | 21 mL/min/kg |
| Cc1nn(-c2cccc(N)c2)c(=O)c2cnc(Nc3ccc(N4CCNCC4)cc3)nc12 | CAMK1 (Homo sapiens, UniProt Q14012) | kinase activity, inhibitor, SelectScreen kinase profiling |  |  |  | IC50 | 1700 nM |
| C=C1CC[C@H](OCCCNC(=O)CCOCCOCCOCCOCCOCCOCCOCCOCCOCCOCCOCCOCCOCCOCCOCCOCCOCCOCCOCCOCCOCCOCCOCCOCCOCCOCCOCCOCCOCCOCCOCCOCCOCCOCCOCCOCCNC(=O)CCN2C(=O)CC(SC[C@H](NC(=O)[C@H](Cc3ccccc3)NC(=O)[C@H](CC(N)=O)NC(=O)[C@H](Cc3c[nH]cn3)NC(=O)[C@@H](NC(=O)[C@H](CC(=O)O)NC(=O)[C@H](CCC(N)=O)NC(=O)[C@H](CC(C)C)NC(=O)[C@H](CCCCN)NC(=O)[C@H](CCCCN)NC(=O)[C@H](CCCNC(=N)N)NC(=O)[C@H](CC(C)C)NC(=O)[C@H](Cc3c[nH]c4ccccc34)NC(=O)[C@H](CCC(=O)O)NC(=O)[C@@H](NC(=O)[C@H](CCCNC(=N)N)NC(=O)[C@H](CCC(=O)O)NC(=O)[C@H](CCSC)NC(=O)[C@H](CO)NC(=O)[C@H](CC(N)=O)NC(=O)[C@H](CC(C)C)NC(=O)[C@H](Cc3c[nH]cn3)NC(=O)[C@H](CCCCN)NC(=O)CNC(=O)[C@H](CC(C)C)NC(=O)[C@H](CC(N)=O)NC(=O)[C@H](Cc3c[nH]cn3)NC(=O)[C@H](CCSC)NC(=O)[C@H](CC(C)C)NC(=O)[C@H](CCC(N)=O)NC(=O)[C@@H](NC(=O)[C@H](CCC(=O)O)NC(=O)[C@H](CO)NC(=O)[C@@H](NC(=O)[C@@H](N)CO)C(C)C)[C@@H](C)CC)C(C)C)C(C)C)C(=O)O)C2=O)C/C1=C/C=C1\CCC[C@]2(C)[C@@H]([C@H](C)CCCC(C)(C)O)CC[C@@H]12 (stereo partly drawn) |  |  | male Sprague-Dawley rat, plasma | subcutaneous, 100 µg/kg, single dose |  | half-life | 7.36 h |
| CC(C)C[C@@H]1NC(=O)[C@H](CO)NC(=O)[C@H](CC(=O)O)NC(=O)[C@@H]2CCCN2C(=O)[C@H]2CCCN2C(=O)[C@H](C(C)C)NC(=O)[C@H](CC(=O)O)NC(=O)[C@H](CC(N)=O)NC(=O)[C@H](CCCNC(=N)N)NC(=O)[C@H]([C@@H](C)O)NC(=O)[C@H](C(C)C)NC(=O)CCNC(=O)CCNC(=O)[C@H](Cc2ccccc2)NC(=O)[C@H](C(C)C)NC(=O)[C@H](CC(C)C)NC1=O | HEK-293T | subcellular fractionation LC-MS | cytoplasmic fraction | 20 µM, 24 h |  | peptide amount per protein | not detected |
| CCN(CC)CC#CCNc1ccnc2cc(Cl)ccc12 | Salmonella typhimurium | mini-Ames test | TA102 | 1000.0 µg/well, with rat liver S9 |  | mean revertants | 80 revertants/well |
| CCCC[C@H](NC(=O)COCCOCCNC(=O)CN1CCN(CC(=O)O)CCN(CC(=O)O)CC1)C(=O)N[C@H]1CC(=O)NCCCC[C@@H](C(N)=O)NC(=O)[C@H](Cc2c[nH]c3ccccc23)NC(=O)[C@H](CCCNC(=N)N)NC(=O)[C@@H](Cc2ccccc2)NC(=O)[C@H](Cc2c[nH]cn2)NC1=O [technetium-99m labelled] |  |  | C57 mouse, heart | intravenous, 0.037 MBq, 4 h |  | tissue uptake | 0.02 ± 0.01 %ID/g |
| CC(C)OCCOCc1ccc(OCC(O)CN(N=O)C(C)C)cc1 (stereo not drawn) | Escherichia coli | Ames test | WP2 uvrA | 15.8 µg/plate, without metabolic activation | reference: solvent control | revertant fold increase | 0.9 fold |
| COC1CN([C@H]2CC[C@H]([C@@]3(C)Oc4c(Cl)cc(C(=O)NCc5c(SC)cc(C)[nH]c5=O)c(C)c4O3)CC2)C1 |  | RNA-seq, item: S100A10 mouse homolog | mouse, HT-1376 xenograft, whole blood | dose not given | reference: vehicle | log2 fold change | 0.541 |
| N#C[C@@H]1CC(F)(F)CN1C(=O)CNC(=O)c1ccnc2c(NC(=O)[C@@H](N)CCCCNC(=O)CCOCCOCCOCCOCCOCCOCCNC(=O)CN3CCN(CC(=O)[O-])CCN(CC(=O)[O-])CCN(CC(=O)[O-])CC3)cccc12.[177Lu+3] | U-87 MG tumour model |  | host not given, tumour | 4 h, tumour-bearing |  | tracer uptake | 4.16 %ID/g |
| C=C(NC(=O)c1csc(-c2nc3c(cc2O)-c2nc(cs2)C(=O)NC(C(C)O)C(=O)NC(=C(C)OC)c2nc(cs2)C(=O)NC2c4nc(cs4)C(=O)NC(COC(=O)c4c5c6c(cccc6n4O)COC(=O)C(OC4CC(C)(O)C(N(C)C)C(C)O4)C2OC5)c2nc-3cs2)n1)C(N)=O (stereo not drawn) |  |  | ICR mice, Streptococcus pneumoniae ATCC 49169 infected, immunocompromised, blood | intravenous, 32 mg/kg/day three times daily |  | Cmax | 1300 ng/mL |
| CC(=O)N[C@H](C(=O)N[C@H](C(=O)N[C@@H](CCCNC(=N)N)C(=O)N[C@@H](CC(N)=O)C(=O)N[C@@H](CC(=O)O)C(=O)N[C@H](C(=O)N1CCC[C@@H]1C(=O)N1CCC[C@H]1C(=O)N[C@@H](CC(=O)O)C(=O)N[C@@H](CO)C(=O)N[C@@H](CC(C)C)C(=O)N[C@@H](CC(C)C)C(=O)N[C@H](C(=O)N[C@@H](Cc1ccccc1)C(N)=O)C(C)C)C(C)C)[C@@H](C)O)C(C)C | HEK-293T | subcellular fractionation LC-MS | nuclear fraction | 20 µM, 24 h |  | concentration | not detected |
| O=C(NC1CCOCC1)c1ccc([C@H]2[C@@H](F)[C@@H](F)C[C@@H](F)[C@H]2F)cc1 |  | liver microsome stability | mouse liver microsomes | 1 µM |  | hepatic clearance | 14 mL/min/kg |
| O=C1C2CC3CC1CC(C(=O)N1CCN(c4ccc([N+](=O)[O-])c5ncccc45)CC1)(C3)C2 | Salmonella typhimurium | Ames test | TA97a | 0.13 µg/well, with S9 |  | mean revertant colonies | 23 colonies/well |
| O=C(CC(F)(F)F)Nc1ccc([C@H]2[C@@H](F)[C@@H](F)C[C@@H](F)[C@H]2F)cc1 |  | liver microsome stability | rat liver microsomes | 1 µM |  | hepatic clearance | 11 mL/min/kg |
| Nc1ncc(-c2cc(-c3cnn(CC(F)(F)F)c3)ncc2F)nc1C(=O)NC1CNCC(F)C1 (stereo not drawn) | PRKD2 | KINOMEscan |  | 1 µM | reference: DMSO control | remaining binding | 77% |
| O=C(NCCO)c1ccc([C@H]2[C@@H](F)[C@@H](F)C[C@@H](F)[C@H]2F)cc1 |  | liver microsome stability | dog liver microsomes | 1 µM |  | hepatic clearance | 7.3 mL/min/kg |
| O=C(c1ccc(OCCN2CCCCC2)cc1)c1c(-c2ccc(O[C@@H]3O[C@H](C(=O)O)[C@@H](O)[C@H](O)[C@H]3O)cc2)sc2cc(O[C@@H]3O[C@H](C(=O)O)[C@@H](O)[C@H](O)[C@H]3O)ccc12 | ABCC2 (Homo sapiens, UniProt Q92887) | substrate | Sf9 membrane vesicles | pH 7 |  | intrinsic clearance | 41.3 µL/min/mg protein |
| CNC(=O)C1CCCN(C(=O)C2CC3CCC2N3C(=O)[C@@H]2C[C@@H](O)CN2C(=O)NCc2cccc(Cl)c2F)C1 (mixture of isomers) | Cytochrome P450 2D6 (CYP2D6, Homo sapiens, UniProt P10635) | enzyme activity, inhibitor, time-dependent inhibition |  | 50 µM, preincubated without NADPH |  | dextrorphan formation | 149 ng/mL |

Some of these lines once more:
| Structure (SMILES) | target or system | assay | test system | setting | scale | quantity | value |
| --- | --- | --- | --- | --- | --- | --- | --- |
| O=C(NCCO)c1ccc([C@H]2[C@@H](F)[C@@H](F)C[C@@H](F)[C@H]2F)cc1 |  | liver microsome stability | dog liver microsomes | 1 µM |  | hepatic clearance | 7.3 mL/min/kg |
| O=C(c1ccc(OCCN2CCCCC2)cc1)c1c(-c2ccc(O[C@@H]3O[C@H](C(=O)O)[C@@H](O)[C@H](O)[C@H]3O)cc2)sc2cc(O[C@@H]3O[C@H](C(=O)O)[C@@H](O)[C@H](O)[C@H]3O)ccc12 | ABCC2 (Homo sapiens, UniProt Q92887) | substrate | Sf9 membrane vesicles | pH 7 |  | intrinsic clearance | 41.3 µL/min/mg protein |
